{"data": "Assay results of several laboratories", "note": "Every numbered part comes from another study and shows a few of its results, in no order. Changes are numbered by the printed parent chain."}
{"data": "Sample 1", "target": "Interferon regulatory factor 5, full length, phosphomimetic (IRF5, Homo sapiens, UniProt Q13568-2, residues 1-514, S451D/S453D/S456D/S462D)", "technique": "protein-binding microarray", "form": "double-stranded DNA, one strand shown", "medium": "in vitro", "concentration": "940 nM top", "setting": "60-bp whole probe", "added": "salmon DNA 0.4 mg/ml", "baseline": "random background probes", "direction": "higher = stronger binding", "all sequences stand within": "GCCTAGCAC … GTCTTGATTCGCTTGACGCTGCTG"}
{"Strand": "GACGGTAACCTTTTCCTGACGTGCTAG", "fitted relative affinity [z-score]": 0.0403}
{"Strand": "TTAGAGCTCAGACTGGATTAGTGCTAG", "fitted relative affinity [z-score]": -0.602}
{"Strand": "GACGGTCTCGGAATCGGGACGTGCTAG", "fitted relative affinity [z-score]": 1.55}
{"Strand": "TCATGTGTCTGATTATTACTGTGCTAG", "fitted relative affinity [z-score]": 0.454}
{"Strand": "ATAGGTTTCGACACTGGGTTAGTGCTA", "fitted relative affinity [z-score]": 7.01}
{"Strand": "GACGGTCTCGGTTTCGAGACGTGCTAG", "fitted relative affinity [z-score]": 6.5}
{"Strand": "GACGATAACAGTATCGAGACGTGCTAG", "fitted relative affinity [z-score]": 1.74}
{"Strand": "TTCCTTCTTGAACTCTTTACGTGCTAG", "fitted relative affinity [z-score]": 1.79}
{"Strand": "TTAGTTTTCCTTCTCCTTTAGTGCTAG", "fitted relative affinity [z-score]": 2.34}
{"Strand": "GACGATATCGGATTTCGAGACGTGCTA", "fitted relative affinity [z-score]": -0.161}
{"Strand": "TCATCTTCCCCTCTCATACTGTGCTAG", "fitted relative affinity [z-score]": 1.35}
{"Strand": "TTAGAACTGAGCCTGGATTAGTGCTAG", "fitted relative affinity [z-score]": -0.681}
{"Strand": "TTAGGTATCGGTCTCCGTTAGTGCTAG", "fitted relative affinity [z-score]": 10.4}
{"Strand": "TCAAATCTCTCTTCACAACTGTGCTAG", "fitted relative affinity [z-score]": 1.13}
{"Strand": "TTAGATTTCGGGACTGGATGAGTGCTA", "fitted relative affinity [z-score]": 0.862}
{"Strand": "GACGGTCTCCTTGTCCTGACGTGCTAG", "fitted relative affinity [z-score]": 0.0153}
{"Strand": "TTAGGACTGGGGACTGGATTAGTGCTA", "fitted relative affinity [z-score]": -0.0229}
{"Strand": "AGAAACTTGTGTTTGTCCCTGTGCTAG", "fitted relative affinity [z-score]": 1.94}
{"Strand": "GACGCACTGGGTATCGGGACGTGCTAG", "fitted relative affinity [z-score]": 0.722}
{"data": "Sample 2", "target": "CCNB3, cyclin fold, Cln2 fusion (human)", "technique": "yeast growth competition, sequencing", "medium": "yeast", "setting": "weak parent motif", "baseline": "not given", "direction": "higher = stronger binding", "starting sequence": "SGO1 docking peptide (human); PLAKRALKYTDEK; partner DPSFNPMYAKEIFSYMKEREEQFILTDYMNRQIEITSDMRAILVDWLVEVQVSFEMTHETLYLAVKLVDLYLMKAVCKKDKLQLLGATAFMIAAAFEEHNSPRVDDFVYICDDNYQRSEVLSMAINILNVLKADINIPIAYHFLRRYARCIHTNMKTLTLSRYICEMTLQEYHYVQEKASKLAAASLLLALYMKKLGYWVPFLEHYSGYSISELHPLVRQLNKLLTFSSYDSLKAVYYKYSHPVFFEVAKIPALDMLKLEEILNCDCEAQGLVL"}
{"Variant": "E12A", "normalised enrichment score": 0.204}
{"Variant": "Y9A", "normalised enrichment score": -0.0471}
{"Variant": "P1A", "normalised enrichment score": -0.0263}
{"Variant": "K13A", "normalised enrichment score": -0.267}
{"Variant": "D11A", "normalised enrichment score": 0.0215}
{"Variant": "T10A", "normalised enrichment score": 0.358}
{"data": "Sample 3", "target": "Hepatocyte nuclear factor 3-alpha (Foxa1, Mus musculus, UniProt P35582, residues 1-468, full length assumed)", "technique": "EMSA with sequencing", "form": "double-stranded DNA, one strand shown", "medium": "in vitro", "concentration": "10 and 20 nM", "setting": "whole designed probe, mean of two concentrations, ends assumed", "baseline": "negative control set to 0", "direction": "higher = stronger binding", "all sequences stand within": "GTGAGCGGTGCCCATTGATGGGGAAC … TTTCACTGGGATCGTGGGGAC", "Residues (chain)": "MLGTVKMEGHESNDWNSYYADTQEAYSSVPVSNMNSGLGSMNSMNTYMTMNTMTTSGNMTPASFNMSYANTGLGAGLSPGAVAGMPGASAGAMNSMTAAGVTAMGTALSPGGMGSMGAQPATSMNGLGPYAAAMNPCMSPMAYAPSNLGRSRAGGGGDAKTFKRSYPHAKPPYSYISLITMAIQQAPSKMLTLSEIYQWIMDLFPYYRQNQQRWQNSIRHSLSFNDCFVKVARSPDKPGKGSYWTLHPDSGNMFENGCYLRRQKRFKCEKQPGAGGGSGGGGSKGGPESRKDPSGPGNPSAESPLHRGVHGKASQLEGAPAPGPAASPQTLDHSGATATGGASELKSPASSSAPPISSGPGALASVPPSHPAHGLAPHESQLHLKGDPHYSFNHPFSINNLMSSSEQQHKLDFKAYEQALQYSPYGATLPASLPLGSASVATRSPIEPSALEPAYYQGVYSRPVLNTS"}
{"Strand": "AGATATTAAACGCCCAGAGAAAGGCTATAATAAAAAATGCATTTAACTTTTTCAAATCTCTTGTTCCCACATCTACTTGAATGCAGAAACTCTAGATTGCCTTAATATTTACTTGTATTTTGCAGAACAAATTTTTGCAGAATTCATTTTGGAAAATGCAGCCACTGACAACTGGGATAATTTTCTAAAGGAA", "normalised bound fraction [ratio]": 0.0425}
{"Strand": "AACAAGGCCCAAATTTTAATTATGCAGGAGGTTAATAGTCACACAGATGACTTTCCGGTAAGATAAACAGTGAAAACTTGGCAAATGCTAATGTAATTTACTCCCCCCTCCTGCCCTCTCATTCCTGAAAATTGTACTCATTCTTGCAGAGTTCATATATGAGAACAGGGTATCCTAACCTAGTTAGAAGCAC", "normalised bound fraction [ratio]": 0.085}
{"Strand": "ATCTTCCCCCTCTTCCTTGCCCCACCAGTTTACCTTCCCGGGTTATTTGCAGATAGGAAAATAAATAAAGCCGGCATTCGTTAACCCTCTTCTGGCGCAAACTGCTGTTTGCTCTGGATGAATCATGGTCCTTTGGCGACGCCAGGCTCCGGGAGAGCAAAGCACCGTGTCAGGGCCATGATCCGGGGTGGCC", "normalised bound fraction [ratio]": 0.32}
{"Strand": "CTAACGTGCAAAATGCTGTACATTAAGTATAGCCAAAATGCAACACTGAGACAGACAGAAAAAACAGGAATTTTTCCAGGGAGATAAATCAAAAGTAAACAAGGAGATAGCTTTAGAGCTGTGCTTTCAATGGCTGGATATTCAAATTATGTTTTATCTCTTAAAATTTCAGAAGTAATATGGGGATACTGAA", "normalised bound fraction [ratio]": 0.442}
{"Strand": "ATCTTCCCCCTCTTCCTTGCCCCACCAGCTCACCTTCCCGGGTTATTTGCAGATAGGAAAATAAATAAAGCCGGCATTCGTTAACCCTCTTCTGGCGCAAACGTTGTTCGCTTCTGGATGAATCATGGTCCTTTGGCGACGCCAGGCTCCGGGAGAGCAAAGCACCGTGTCAGGGCCATGATCCGGGGTGGCC", "normalised bound fraction [ratio]": 0.306}
{"data": "Sample 4", "target": "CEBPD, bZIP domain (human)", "technique": "DHFR protein complementation", "medium": "yeast", "setting": "single substitutions, most at no-binding floor", "baseline": "wild-type JUN-FOS pair", "direction": "higher = stronger binding", "starting sequence": "JUN, bZIP domain (human); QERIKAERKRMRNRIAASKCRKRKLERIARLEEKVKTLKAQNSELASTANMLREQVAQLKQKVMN; partner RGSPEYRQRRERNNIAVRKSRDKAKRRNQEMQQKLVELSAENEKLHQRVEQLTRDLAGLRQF"}
{"Variant": "N42Q", "binding fitness": "-1.33 natural log"}
{"Variant": "R53Q", "binding fitness": "-1.19 natural log"}
{"Variant": "E32D", "binding fitness": "-1.41 natural log"}
{"Variant": "V56W", "binding fitness": "-1.46 natural log"}
{"Variant": "A46K", "binding fitness": "-1.25 natural log"}
{"Variant": "K39W", "binding fitness": "-1.49 natural log"}
{"Variant": "A49V", "binding fitness": "-1.21 natural log"}
{"Variant": "T37H", "binding fitness": "-1.35 natural log"}
{"Variant": "E33V", "binding fitness": "-1.47 natural log"}
{"Variant": "L52P", "binding fitness": "-1.48 natural log"}
{"Variant": "S47Q", "binding fitness": "-1.3 natural log"}
{"Variant": "T37F", "binding fitness": "-1.34 natural log"}
{"Variant": "L31N", "binding fitness": "-1.52 natural log"}
{"Variant": "E54T", "binding fitness": "-1.36 natural log"}
{"Variant": "Q55M", "binding fitness": "-1.45 natural log"}
{"Variant": "T48W", "binding fitness": "-1.43 natural log"}
{"Variant": "A49H", "binding fitness": "-1.41 natural log"}
{"Variant": "N42D", "binding fitness": "-1.49 natural log"}
{"Variant": "L52G", "binding fitness": "-1.52 natural log"}
{"Variant": "A46M", "binding fitness": "-1.28 natural log"}
{"Variant": "L31G", "binding fitness": "-1.45 natural log"}
{"Variant": "V56G", "binding fitness": "-1.5 natural log"}
{"Variant": "V35E", "binding fitness": "-1.49 natural log"}
{"Variant": "L38G", "binding fitness": "-1.48 natural log"}
{"Variant": "A46T", "binding fitness": "-1.3 natural log"}
{"note": "Repeated from above (sample 4):"}
{"Variant": "T37H", "binding fitness": "-1.35 natural log"}
{"Variant": "E33V", "binding fitness": "-1.47 natural log"}
{"Variant": "L52P", "binding fitness": "-1.48 natural log"}
{"Variant": "S47Q", "binding fitness": "-1.3 natural log"}
{"Variant": "T37F", "binding fitness": "-1.34 natural log"}
{"Variant": "L31N", "binding fitness": "-1.52 natural log"}
{"Variant": "E54T", "binding fitness": "-1.36 natural log"}
{"Variant": "Q55M", "binding fitness": "-1.45 natural log"}
